Measured values pooled from the literature.
Each numbered part is a random draw from the data of one study; scales do not carry over between parts.
Sequence of UniProt P51957 (whole entry, looked up): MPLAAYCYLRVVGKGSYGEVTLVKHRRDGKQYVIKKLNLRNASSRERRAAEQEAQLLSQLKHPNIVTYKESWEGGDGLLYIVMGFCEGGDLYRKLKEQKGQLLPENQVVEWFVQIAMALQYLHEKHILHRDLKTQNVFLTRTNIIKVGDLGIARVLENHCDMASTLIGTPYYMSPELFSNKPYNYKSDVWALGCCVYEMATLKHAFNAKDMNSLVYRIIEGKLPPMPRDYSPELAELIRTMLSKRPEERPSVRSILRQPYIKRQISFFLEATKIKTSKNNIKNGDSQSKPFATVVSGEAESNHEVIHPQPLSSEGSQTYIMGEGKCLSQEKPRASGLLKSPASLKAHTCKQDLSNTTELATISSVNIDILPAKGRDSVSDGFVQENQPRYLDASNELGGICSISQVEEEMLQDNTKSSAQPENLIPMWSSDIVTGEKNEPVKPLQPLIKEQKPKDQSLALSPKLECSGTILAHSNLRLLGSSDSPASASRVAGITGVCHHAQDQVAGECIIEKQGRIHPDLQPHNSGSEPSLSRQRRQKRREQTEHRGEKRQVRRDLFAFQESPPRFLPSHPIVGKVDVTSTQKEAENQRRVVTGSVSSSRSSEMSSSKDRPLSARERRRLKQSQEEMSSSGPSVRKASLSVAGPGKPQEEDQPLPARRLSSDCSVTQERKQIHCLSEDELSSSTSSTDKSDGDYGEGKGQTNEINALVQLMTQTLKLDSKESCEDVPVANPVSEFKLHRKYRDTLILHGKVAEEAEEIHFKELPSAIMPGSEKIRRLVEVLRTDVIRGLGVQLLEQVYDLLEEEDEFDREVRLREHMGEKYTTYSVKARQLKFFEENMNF
Sequence of UniProt P07948 (whole entry, looked up): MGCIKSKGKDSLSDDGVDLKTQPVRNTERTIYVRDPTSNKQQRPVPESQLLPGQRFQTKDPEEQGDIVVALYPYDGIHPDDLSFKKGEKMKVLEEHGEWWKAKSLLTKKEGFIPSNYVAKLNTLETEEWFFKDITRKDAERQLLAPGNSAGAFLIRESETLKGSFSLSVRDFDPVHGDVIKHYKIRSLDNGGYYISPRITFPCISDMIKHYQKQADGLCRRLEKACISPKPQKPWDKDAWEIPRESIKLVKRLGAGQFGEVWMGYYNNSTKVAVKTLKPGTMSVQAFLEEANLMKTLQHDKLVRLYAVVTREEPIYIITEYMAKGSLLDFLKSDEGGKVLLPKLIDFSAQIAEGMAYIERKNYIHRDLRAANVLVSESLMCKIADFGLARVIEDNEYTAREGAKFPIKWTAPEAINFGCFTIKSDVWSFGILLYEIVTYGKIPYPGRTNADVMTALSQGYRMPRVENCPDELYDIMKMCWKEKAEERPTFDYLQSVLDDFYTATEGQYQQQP
Sequence of UniProt P10721 (whole entry, looked up): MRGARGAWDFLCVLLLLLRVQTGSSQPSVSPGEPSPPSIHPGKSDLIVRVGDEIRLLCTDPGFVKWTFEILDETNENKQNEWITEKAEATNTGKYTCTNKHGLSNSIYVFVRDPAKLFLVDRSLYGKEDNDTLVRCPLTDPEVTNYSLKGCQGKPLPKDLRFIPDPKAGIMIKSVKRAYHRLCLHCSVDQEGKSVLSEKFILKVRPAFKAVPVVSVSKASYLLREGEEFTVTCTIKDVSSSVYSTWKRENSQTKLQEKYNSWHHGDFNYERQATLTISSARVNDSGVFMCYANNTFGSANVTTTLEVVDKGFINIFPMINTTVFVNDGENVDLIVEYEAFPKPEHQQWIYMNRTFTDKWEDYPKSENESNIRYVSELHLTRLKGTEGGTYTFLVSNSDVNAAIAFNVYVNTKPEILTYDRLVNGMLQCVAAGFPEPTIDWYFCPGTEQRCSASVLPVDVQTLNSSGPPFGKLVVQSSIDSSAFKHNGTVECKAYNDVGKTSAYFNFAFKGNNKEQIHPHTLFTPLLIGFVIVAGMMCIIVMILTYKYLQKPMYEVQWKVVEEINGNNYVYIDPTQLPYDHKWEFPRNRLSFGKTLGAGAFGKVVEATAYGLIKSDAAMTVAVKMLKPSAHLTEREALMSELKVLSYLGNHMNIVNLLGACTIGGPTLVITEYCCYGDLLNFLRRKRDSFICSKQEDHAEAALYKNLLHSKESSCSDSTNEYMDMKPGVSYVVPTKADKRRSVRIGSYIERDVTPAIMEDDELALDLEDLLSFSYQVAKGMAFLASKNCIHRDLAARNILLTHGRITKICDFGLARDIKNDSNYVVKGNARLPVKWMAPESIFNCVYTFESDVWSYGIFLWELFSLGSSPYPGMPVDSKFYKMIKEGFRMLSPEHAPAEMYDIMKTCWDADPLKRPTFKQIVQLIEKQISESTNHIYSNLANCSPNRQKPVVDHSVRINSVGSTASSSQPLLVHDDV
Sequence of UniProt Q9Y3S1 (whole entry, looked up): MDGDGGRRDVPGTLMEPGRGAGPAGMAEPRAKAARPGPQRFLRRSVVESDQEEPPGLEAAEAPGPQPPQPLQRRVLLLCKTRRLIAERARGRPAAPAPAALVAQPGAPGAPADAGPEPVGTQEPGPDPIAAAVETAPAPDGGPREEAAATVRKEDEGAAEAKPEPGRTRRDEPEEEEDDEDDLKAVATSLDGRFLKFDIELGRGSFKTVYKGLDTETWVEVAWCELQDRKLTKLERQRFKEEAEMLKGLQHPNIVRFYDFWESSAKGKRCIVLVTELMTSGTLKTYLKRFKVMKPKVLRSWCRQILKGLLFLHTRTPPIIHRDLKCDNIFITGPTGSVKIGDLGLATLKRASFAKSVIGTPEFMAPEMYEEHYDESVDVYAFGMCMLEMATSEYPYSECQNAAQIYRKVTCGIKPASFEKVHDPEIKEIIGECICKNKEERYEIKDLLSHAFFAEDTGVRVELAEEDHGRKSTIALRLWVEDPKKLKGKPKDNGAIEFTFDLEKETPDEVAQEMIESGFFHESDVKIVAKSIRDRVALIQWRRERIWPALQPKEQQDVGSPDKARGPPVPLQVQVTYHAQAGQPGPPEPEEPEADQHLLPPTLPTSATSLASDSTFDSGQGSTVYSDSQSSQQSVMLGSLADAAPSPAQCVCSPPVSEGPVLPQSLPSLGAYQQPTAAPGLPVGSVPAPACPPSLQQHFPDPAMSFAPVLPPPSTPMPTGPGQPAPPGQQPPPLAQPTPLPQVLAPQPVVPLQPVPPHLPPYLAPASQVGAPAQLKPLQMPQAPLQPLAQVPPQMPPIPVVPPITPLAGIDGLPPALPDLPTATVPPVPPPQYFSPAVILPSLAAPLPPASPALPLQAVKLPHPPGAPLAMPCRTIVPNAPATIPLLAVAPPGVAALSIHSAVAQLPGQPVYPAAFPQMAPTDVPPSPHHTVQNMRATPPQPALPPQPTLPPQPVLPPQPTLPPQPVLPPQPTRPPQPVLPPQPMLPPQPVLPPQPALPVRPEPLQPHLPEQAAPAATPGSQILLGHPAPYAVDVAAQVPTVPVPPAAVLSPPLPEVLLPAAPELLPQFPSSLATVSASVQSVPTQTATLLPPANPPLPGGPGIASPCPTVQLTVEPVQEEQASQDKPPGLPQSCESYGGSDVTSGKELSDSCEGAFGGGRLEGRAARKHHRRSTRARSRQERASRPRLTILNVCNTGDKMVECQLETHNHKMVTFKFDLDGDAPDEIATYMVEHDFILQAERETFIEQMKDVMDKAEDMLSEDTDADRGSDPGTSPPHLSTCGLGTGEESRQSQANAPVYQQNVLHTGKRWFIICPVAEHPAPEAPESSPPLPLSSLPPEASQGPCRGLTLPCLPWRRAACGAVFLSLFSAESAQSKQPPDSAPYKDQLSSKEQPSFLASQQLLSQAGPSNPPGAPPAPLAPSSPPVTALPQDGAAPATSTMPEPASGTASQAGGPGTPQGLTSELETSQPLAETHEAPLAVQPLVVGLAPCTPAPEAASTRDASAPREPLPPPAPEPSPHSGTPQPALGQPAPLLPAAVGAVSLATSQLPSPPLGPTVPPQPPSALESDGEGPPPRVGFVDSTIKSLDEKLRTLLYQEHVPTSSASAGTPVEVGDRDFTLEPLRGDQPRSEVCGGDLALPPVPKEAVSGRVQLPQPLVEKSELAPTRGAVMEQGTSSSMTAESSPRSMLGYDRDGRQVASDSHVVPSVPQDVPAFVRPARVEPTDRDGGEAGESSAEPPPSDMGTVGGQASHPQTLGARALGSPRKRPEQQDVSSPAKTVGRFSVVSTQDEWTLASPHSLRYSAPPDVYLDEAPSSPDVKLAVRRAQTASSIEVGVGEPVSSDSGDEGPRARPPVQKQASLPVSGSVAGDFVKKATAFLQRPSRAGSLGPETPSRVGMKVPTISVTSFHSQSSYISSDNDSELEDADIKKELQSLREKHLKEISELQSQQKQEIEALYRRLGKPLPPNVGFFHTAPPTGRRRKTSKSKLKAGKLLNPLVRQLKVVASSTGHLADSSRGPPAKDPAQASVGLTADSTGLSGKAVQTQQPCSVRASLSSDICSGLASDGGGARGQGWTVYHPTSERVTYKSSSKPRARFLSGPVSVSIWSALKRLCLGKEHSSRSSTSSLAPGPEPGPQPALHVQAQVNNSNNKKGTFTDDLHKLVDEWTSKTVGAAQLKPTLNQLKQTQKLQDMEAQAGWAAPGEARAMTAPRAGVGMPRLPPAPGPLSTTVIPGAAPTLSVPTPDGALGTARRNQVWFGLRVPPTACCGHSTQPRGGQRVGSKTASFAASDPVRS
Sequence of UniProt P49760 (whole entry, looked up): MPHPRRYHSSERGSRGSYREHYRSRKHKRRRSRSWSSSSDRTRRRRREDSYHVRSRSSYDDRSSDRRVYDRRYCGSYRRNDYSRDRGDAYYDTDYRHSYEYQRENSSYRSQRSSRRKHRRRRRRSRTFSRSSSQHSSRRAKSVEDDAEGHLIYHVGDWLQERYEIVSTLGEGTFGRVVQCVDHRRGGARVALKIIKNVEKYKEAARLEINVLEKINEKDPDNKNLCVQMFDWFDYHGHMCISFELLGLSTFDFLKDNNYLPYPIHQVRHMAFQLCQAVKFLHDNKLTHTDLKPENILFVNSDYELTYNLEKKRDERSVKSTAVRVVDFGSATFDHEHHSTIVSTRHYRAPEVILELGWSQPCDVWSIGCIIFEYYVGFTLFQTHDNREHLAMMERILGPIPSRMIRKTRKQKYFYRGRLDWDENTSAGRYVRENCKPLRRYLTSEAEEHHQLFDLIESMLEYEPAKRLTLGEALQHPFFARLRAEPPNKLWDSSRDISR

Block 1
Effect on: AlphaScreen signal
Technique: AlphaScreen counter screen
Matrix: His6 peptide without bromodomain
Tested at: 50 µM
Setting: assay interference check
Structure (SMILES)	inhibition [%]
CCOC(=O)CNC(=O)CSc1ccc2nnc(-c3cccc(F)c3)n2n1	-1.8
O=c1cc(N2CCOCC2)oc2c(-c3ccccc3)cccc12	12.7
Clc1ccc(Nc2nccn3c(-c4ccsc4)cnc23)cc1	36.4
CN1CCN(CCOc2cc(OC3CCOCC3)c3c(Nc4c(Cl)ccc5c4OCO5)ncnc3c2)CC1	16
O=c1sn(-c2cccc3ccccc23)c(=O)n1Cc1ccccc1	-15.2
Cl.NCCNS(=O)(=O)c1cccc2c(Cl)cccc12	13.7
C[C@]12O[C@H](C[C@]1(O)CO)n1c3ccccc3c3c4c(c5c6ccccc6n2c5c31)CNC4=O	18.1
CC(C)(C)Cn1c(N)nc2ccc(-c3[nH]c(C(C)(C)C)nc3-c3ccc(F)cc3)nc21	58.2
COc1ccc(Nc2nc(N)nc3[nH]cnc23)cc1OC	12.7
COc1cccc(Nc2ncc3c(n2)CCN(C(=O)OC(C)(C)C)C3)c1	29
CCc1c(O)[nH]c2nc3ccccc3n2c1=O	-0.6
COc1ccc(COc2ccc(Cc3cnc(N)nc3N)cc2OC)cc1	24.2
O=C1c2c(O)ccc(O)c2C(=O)c2c(NCCCO)ccc(NCCCO)c21	86
O=C1Cc2c([nH]c3ccc(Br)cc23)-c2ccccc2N1	10.3
Nc1nccc(-c2ccc3noc(-c4ccc(Cl)cc4)c3c2)n1	9.05

Block 2
SMILES: CN1CCN(c2cnc3c(C4CCN(C(=O)c5ccc(OC(F)(F)F)cc5N)CC4)ncnc3c2)CC1
Tested at: 1 µM
target	effect on	technique	remaining binding [%]
RIOK3 (Homo sapiens, UniProt O14730)	cell-free assay	competition with immobilised ligand	97
TNNI3K (Homo sapiens, UniProt Q59H18)	cell-free assay	competition with immobilised ligand	100
FER (Homo sapiens, UniProt P16591)	cell-free assay	competition with immobilised ligand	100
PDGFRB (Homo sapiens, UniProt P09619)	cell-free assay	competition with immobilised ligand	95
Aurora kinase A (AURKA, Homo sapiens, UniProt O14965)	cell-free assay	competition with immobilised ligand	100
WEE2 (Homo sapiens, UniProt P0C1S8)	cell-free assay	competition with immobilised ligand	100
LTK (Homo sapiens, UniProt P29376)	cell-free assay	competition with immobilised ligand	49
STK39 (Homo sapiens, UniProt Q9UEW8)	cell-free assay	competition with immobilised ligand	81
LYN (Homo sapiens, UniProt P07948)	cell-free assay	competition with immobilised ligand	75
NEK4 (Homo sapiens, UniProt P51957)	cell-free assay	competition with immobilised ligand	100
VRK2 (Homo sapiens, UniProt Q86Y07)	cell-free assay	competition with immobilised ligand	100
Myosin-IIIa (MYO3A, Homo sapiens, UniProt Q8NEV4)	binding	competition with immobilised ligand	100
WNK4 (Homo sapiens, UniProt Q96J92)	cell-free assay	competition with immobilised ligand	99
ALK (Homo sapiens, UniProt Q9UM73, C1156Y)	cell-free assay	competition with immobilised ligand	100
FLT3 (Homo sapiens, UniProt P36888)	cell-free assay	competition with immobilised ligand	97
HIPK3 (Homo sapiens, UniProt Q9H422)	cell-free assay	competition with immobilised ligand	100
MKNK1 (Homo sapiens, UniProt Q9BUB5)	cell-free assay	competition with immobilised ligand	100
EGFR (Homo sapiens, UniProt P00533, A750P/del747-749)	cell-free assay	competition with immobilised ligand	83
CLK2 (Homo sapiens, UniProt P49760)	cell-free assay	competition with immobilised ligand	100
CAMK1 (Homo sapiens, UniProt Q14012)	cell-free assay	competition with immobilised ligand	100
SIK1 (Homo sapiens, UniProt P57059)		competition binding	92
Macrophage colony-stimulating factor 1 receptor, autoinhibited (CSF1R, Homo sapiens, UniProt P07333)	cell-free assay	competition with immobilised ligand	92
EGFR (Homo sapiens, UniProt P00533, del747-752/P753S)	cell-free assay	competition with immobilised ligand	100
FLT3 (Homo sapiens, UniProt P36888, K663Q)	cell-free assay	competition with immobilised ligand	100
ABL2 (Homo sapiens, UniProt P42684)	cell-free assay	competition with immobilised ligand	100

Block 3
Organism: Plasmodium berghei
Mode: inhibitor
Cells: Huh-7
Strain: liver stage
Tested at: 10 µM
Time: 24 h
Baseline: untreated control
SMILES	infection rate [%]
Cc1cc(-c2ccccc2)nnc1NCCN1CCOCC1	104
CCn1cc(C(=O)O)c(=O)c2cc(F)c(N3CCNC(C)C3)c(F)c21 (centres unmarked)	99.4
O=C(CCCCC(=O)Nc1c(I)cc(I)c(C(=O)O)c1I)Nc1c(I)cc(I)c(C(=O)O)c1I	116
C=C1c2cccc(O)c2C(=O)C2=C(O)[C@]3(O)C(=O)C(C(N)=O)=C(O)[C@@H](N(C)C)[C@@H]3[C@@H](O)[C@H]12	36.6
Cc1cccc(C)c1NC(=O)C1CCCCN1C (centres unmarked)	96.7
CC1=CC(=O)c2ccccc2C1=O	75
COc1ccc(Cl)cc1C(=O)NCCc1ccc(S(=O)(=O)NC(=O)NC2CCCCC2)cc1	92.6
CC(C)(C)NC[C@H](O)COc1cccc2c1CCCC2=O	109
C[C@H]1C[C@@H]2[C@H]([C@@H](O)C[C@@]3(C)[C@H]2CC[C@]3(O)C(=O)CO)[C@@]2(C)C=CC(=O)C=C12	95
O=C1[C@H](CC[C@H](O)c2ccc(F)cc2)[C@@H](c2ccc(O)cc2)N1c1ccc(F)cc1	108
CC1(C)O[C@@H]2C[C@H]3[C@@H]4C[C@H](F)C5=CC(=O)C=C[C@]5(C)[C@@]4(F)[C@@H](O)C[C@]3(C)[C@]2(C(=O)CO)O1	90.6
OC[C@@H](O)[C@@H](O)[C@H](O)[C@H](O)CO	99.6
O=C(CCNNC(=O)c1ccncc1)NCc1ccccc1	123

Block 4
SMILES: O=C1NC(=O)/C(=C/c2ccc3c(c2)OC(F)(F)O3)S1
Effect on: enzyme activity
Mode: inhibitor
Tested at: 0.5 µM
Baseline: control
target	remaining activity
Cyclin-dependent kinase 9, with cyclin T1 (CDK9, Homo sapiens, UniProt P50750)	98.7%
MAPK12 (Homo sapiens, UniProt P53778)	92.8%
NEK4 (Homo sapiens, UniProt P51957)	97.8%
AKT3 (Homo sapiens, UniProt Q9Y243)	103%
MAP2K6 (Homo sapiens, UniProt P52564)	92.3%
LYN (Homo sapiens, UniProt P07948)	99.9%
MKNK2 (Homo sapiens, UniProt Q9HBH9)	98.3%
CSNK1A1 (Homo sapiens, UniProt P48729)	88.4%
PLK2 (Homo sapiens, UniProt Q9NYY3)	99.7%
IRAK4 (Homo sapiens, UniProt Q9NWZ3)	99.2%
STK38 (Homo sapiens, UniProt Q15208)	107%
BTK (Homo sapiens, UniProt Q06187)	94.3%
CSNK2A1 (Homo sapiens, UniProt P68400)	22.6%
PRKG1 (Homo sapiens, UniProt Q13976)	95.6%
MAPK13 (Homo sapiens, UniProt O15264)	101%
PRKCD (Homo sapiens, UniProt Q05655)	93.2%
PRKCI (Homo sapiens, UniProt P41743)	95.9%
MAP4K2 (Homo sapiens, UniProt Q12851)	90.7%
LRRK2 (Homo sapiens, UniProt Q5S007)	103%
MAP3K10 (Homo sapiens, UniProt Q02779)	91.2%
CHEK1 (Homo sapiens, UniProt O14757)	101%
EPHA5 (Homo sapiens, UniProt P54756)	100%
WNK2 (Homo sapiens, UniProt Q9Y3S1)	113%
KIT (Homo sapiens, UniProt P10721)	93.4%
